Assay results pooled from the literature.
Lines come from different studies, so protocols differ.
Target: Serine/threonine-protein kinase TAO1 (TAOK1, Homo sapiens, UniProt Q7L7X3)

SMILES | assay | conditions | how to read | quantity | value
COc1c(Cl)cccc1Nc1c(-c2ccncc2C#C[C@@]2(C)CCCN2C(=O)/C=C/CN(C)C)[nH]c2c1C(=O)NCC2 | binding, competition with immobilised ligand | 3 µM | – | remaining binding | 26%
O=C(Cc1ccc(OCc2ccccc2)cc1)NC1(C(=O)O)CCN(C(=O)c2ccc(-c3cccc(Cl)c3)cc2)CC1 | enzyme activity, inhibitor | 10 µM | – | activity vs control | 63%
C=CC(=O)N1CCc2ccc(-n3c(=O)ccc4cnc5ccc(-c6cnn(C)c6)cc5c43)cc21 | KINOMEscan | 1 µM | baseline: DMSO control | remaining binding | 100%
CN1CCN(Cc2ccc(-c3ccc(CO[C@H]4CCC[C@@H]4NC(=O)c4cc(-c5cnn(C)c5)cnc4N)cc3)cc2)CC1 | enzyme activity, inhibitor | 0.1 µM | – | inhibition | 1%
CC(C)=CC1OC(C)(C)C2C=C3C(=O)C(Cl)=CC(O)C3C3C(O)C4OC4C(=O)C132 (centres unmarked) | cell-free assay, competition with immobilised ligand | 10 µM | – | remaining binding | 90%
O=C(Nc1ccc(Oc2ncnc3[nH]cc(-c4ccccc4)c23)c(F)c1)c1c2n(n(-c3cc(F)ccc3F)c1=O)CCCC2 | enzyme activity, inhibitor | 0.5 µM | – | inhibition | 19%
NC(=O)C[C@H]1CCc2sc3ncnc(O[C@H]4CC[C@H](N5CCOCC5)CC4)c3c21 | enzyme activity, inhibitor | 10 µM | – | inhibition | -2%
Cc1ccc(-c2c(/C=C(\C#N)C(=O)NC(C)C)n(CCCO)c3ncnc(N)c23)cc1 | cell-free assay, competition with immobilised ligand | 1 µM | – | remaining binding | 100%
CCN1CCN(Cc2ccc(C(=O)Nc3ccc(C)c(NCc4cnc5[nH]ccc5c4OC)c3)cc2C(F)(F)F)CC1 | binding, competition with immobilised ligand | 1 µM | – | remaining binding | 46%
COc1ccc(O)cc1-c1c[nH]c2ncc(-c3cncc(C(=O)N(C)C)c3)cc12 | binding, competition with immobilised ligand | 0.2 µM | – | inhibition | 11.2%
CCn1cc(C(=O)O)c(=O)c2c(N)c(F)c(NC3CCCCC3)cc21 | kinase activity | 0.1 µM, with: ATP at Km | – | inhibition | 6.5%
COc1cc(Nc2nc(C)cc(-c3cnn4nc(OC)ccc34)n2)cc(C(F)(F)F)c1 | binding, competition with immobilised ligand | 1 µM | – | remaining binding | 96%
C=CC(=O)N1Cc2nc(-c3cc(-c4cc(Cl)cnc4Cl)c(F)cc3F)n(-c3ccncn3)c2C1 | cell-free assay, inhibitor | 1 µM | – | inhibition | 0.7%
O=C=[N][Ru-4]123([n]4c5ccc(O)cc5c5c6c(c7cc(F)c[n+]1c7c54)C(=O)NC6=O)[S+]1CC[S+]2CC[S+]3CC1 (centres unmarked) | enzyme activity | 100 nM, human enzyme, with: 10 µM ATP | baseline: untreated | remaining activity | 105%
